# Published values of several laboratories.
# Parts stem from different laboratories: compare values within a part only.
# UniProt P28222, sequence (whole entry, looked up): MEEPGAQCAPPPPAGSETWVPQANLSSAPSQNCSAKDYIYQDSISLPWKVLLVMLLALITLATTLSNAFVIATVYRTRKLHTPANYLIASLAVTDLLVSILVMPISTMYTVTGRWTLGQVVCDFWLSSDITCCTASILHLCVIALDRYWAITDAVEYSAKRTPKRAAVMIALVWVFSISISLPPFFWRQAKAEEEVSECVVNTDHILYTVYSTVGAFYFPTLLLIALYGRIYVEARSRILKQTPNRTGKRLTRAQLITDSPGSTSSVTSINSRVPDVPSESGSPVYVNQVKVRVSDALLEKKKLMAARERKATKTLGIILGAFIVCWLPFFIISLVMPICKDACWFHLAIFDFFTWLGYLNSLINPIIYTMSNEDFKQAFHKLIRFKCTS
# UniProt P35348, sequence (whole entry, looked up): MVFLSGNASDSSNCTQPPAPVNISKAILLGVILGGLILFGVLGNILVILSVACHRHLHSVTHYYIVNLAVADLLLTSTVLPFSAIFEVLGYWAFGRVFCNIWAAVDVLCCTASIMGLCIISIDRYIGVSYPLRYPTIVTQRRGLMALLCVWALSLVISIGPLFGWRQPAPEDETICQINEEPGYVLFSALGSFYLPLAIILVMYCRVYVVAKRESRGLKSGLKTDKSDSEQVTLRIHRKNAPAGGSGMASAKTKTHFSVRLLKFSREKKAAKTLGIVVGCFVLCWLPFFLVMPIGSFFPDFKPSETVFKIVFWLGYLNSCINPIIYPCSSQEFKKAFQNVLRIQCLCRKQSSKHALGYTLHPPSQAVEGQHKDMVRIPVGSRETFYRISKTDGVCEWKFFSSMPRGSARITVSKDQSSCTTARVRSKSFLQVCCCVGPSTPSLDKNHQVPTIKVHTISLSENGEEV
# UniProt P08173, sequence (whole entry, looked up): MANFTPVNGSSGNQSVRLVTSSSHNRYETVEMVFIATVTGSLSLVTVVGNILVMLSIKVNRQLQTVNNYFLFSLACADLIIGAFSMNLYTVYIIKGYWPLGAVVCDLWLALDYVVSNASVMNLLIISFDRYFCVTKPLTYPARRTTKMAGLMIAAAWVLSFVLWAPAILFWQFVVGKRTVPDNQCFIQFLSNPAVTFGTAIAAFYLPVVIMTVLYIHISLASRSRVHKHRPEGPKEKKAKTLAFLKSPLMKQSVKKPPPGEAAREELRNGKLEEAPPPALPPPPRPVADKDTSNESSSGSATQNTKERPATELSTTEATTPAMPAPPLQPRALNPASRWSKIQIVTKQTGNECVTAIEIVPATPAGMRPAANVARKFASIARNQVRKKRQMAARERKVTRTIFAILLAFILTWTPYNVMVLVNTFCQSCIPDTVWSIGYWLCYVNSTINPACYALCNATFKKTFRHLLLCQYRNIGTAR

# Block 1
# Target: Interferon regulatory factor 7, full length, phosphomimetic (IRF7, Homo sapiens, UniProt Q92985, residues 1-503, S471D/S472D/S475D/S476D/S477D/S483D/S484D/S487D)
# Method: protein-binding microarray
# Molecule type: double-stranded DNA, one strand shown
# Sample: in vitro
# Concentration: 2200 nM top
# Notes: 60-bp whole probe
# Together with: salmon DNA 0.4 mg/ml
# Reference: random background probes
# Direction: higher = stronger binding
# Constant ends, left off below: GCCTAGCACT … GTCTTGATTCGCTTGACGCTGCTG
# Residues (chain): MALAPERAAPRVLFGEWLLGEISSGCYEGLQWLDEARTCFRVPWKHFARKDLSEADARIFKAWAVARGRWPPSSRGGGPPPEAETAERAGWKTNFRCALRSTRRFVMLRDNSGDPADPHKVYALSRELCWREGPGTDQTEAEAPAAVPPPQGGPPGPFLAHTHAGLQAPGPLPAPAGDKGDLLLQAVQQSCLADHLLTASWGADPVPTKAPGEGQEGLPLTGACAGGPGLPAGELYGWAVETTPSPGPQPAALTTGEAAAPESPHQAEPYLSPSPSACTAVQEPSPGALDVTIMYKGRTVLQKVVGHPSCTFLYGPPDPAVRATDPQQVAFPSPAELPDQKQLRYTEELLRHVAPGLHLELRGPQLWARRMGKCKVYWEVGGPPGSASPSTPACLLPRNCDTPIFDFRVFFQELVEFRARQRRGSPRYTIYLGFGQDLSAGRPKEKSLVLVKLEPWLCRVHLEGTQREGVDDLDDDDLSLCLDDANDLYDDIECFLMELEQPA
Oligonucleotide,fitted relative affinity
CAAAAATGATGTTTTAGACTGTGCTA,-0.821 z-score
GTGGTGCAGCTCCCTCCTCGTGCTAG,0.0277 z-score
TAGATCTCAGACTGGATTCGTGCTAG,0.116 z-score
AAGAACTGAGTATCGATTAGTGCTAG,-0.507 z-score
TAGATCTCAGTATCGATTTGTGCTAG,0.971 z-score
TAGAGCTGGGGTTTCGATTAGTGCTA,1.59 z-score
TAGAGATCGGGTATCGATTAGTGCTA,-0.544 z-score
CACCTTCCTCTTTTACACTGTGCTAG,3.19 z-score

# Block 2
# Compound: N#CN1CC[C@H](C(=O)Nc2nc3c(s2)CN(C(=O)CN=[N+]=[N-])CC3)C1
# Concentration: 10 µM
target,observed,method,inhibition [%]
"HTR1B (Homo sapiens, UniProt P28222)",binding,radioligand binding,1.57
"CHRM4 (Homo sapiens, UniProt P08173)",ligand displacement,,4.84
"ADRA1A (Homo sapiens, UniProt P35348)",ligand displacement,,11.2

# Block 3
# Target: Ribosomal protein S6 kinase alpha-5 (RPS6KA5, Homo sapiens, UniProt O75582)
# UniProt O75582, sequence (whole entry, looked up): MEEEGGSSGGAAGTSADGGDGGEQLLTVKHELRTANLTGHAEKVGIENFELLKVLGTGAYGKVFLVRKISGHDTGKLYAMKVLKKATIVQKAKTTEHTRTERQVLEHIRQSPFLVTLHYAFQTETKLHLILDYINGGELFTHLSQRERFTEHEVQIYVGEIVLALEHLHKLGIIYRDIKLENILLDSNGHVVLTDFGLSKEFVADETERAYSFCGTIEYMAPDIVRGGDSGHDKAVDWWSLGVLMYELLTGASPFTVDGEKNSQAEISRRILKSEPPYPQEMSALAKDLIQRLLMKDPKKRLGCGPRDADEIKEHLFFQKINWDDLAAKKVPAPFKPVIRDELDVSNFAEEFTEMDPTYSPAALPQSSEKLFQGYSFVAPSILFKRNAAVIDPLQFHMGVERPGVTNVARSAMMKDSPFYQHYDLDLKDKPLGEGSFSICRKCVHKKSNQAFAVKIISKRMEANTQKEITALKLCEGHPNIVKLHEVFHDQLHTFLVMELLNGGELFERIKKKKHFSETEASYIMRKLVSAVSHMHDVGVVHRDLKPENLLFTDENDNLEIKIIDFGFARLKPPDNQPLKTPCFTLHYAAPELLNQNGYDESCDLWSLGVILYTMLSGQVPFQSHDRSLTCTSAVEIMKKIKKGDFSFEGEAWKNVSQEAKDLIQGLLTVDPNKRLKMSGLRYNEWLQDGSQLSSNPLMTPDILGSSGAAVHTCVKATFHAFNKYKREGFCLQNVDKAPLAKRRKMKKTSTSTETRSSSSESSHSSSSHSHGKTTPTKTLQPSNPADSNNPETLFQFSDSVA
# Observed: enzyme activity
# Mode: inhibitor
# Concentration: 0.5 µM
# Reference: control
SMILES,remaining activity
Nc1ccc2ncnc(NCCc3ccc(Oc4ccccc4)cc3)c2c1,98.3%
COc1ccc(CNC(=O)Nc2ncc([N+](=O)[O-])s2)cc1,99.5%
O=c1c2ccccc2[nH]c(=S)n1CCN1CCC(=C(c2ccc(F)cc2)c2ccc(F)cc2)CC1,105%
CC(C)[C@H](CO)Nc1nc(Nc2cc(N)cc(Cl)c2)c2ncn(C(C)C)c2n1,103%
Nc1[nH]nc2nc3ccccc3nc12,92.4%
O=C(CCCc1ccc(-c2ccccc2F)cc1)Nc1ccc(O)cc1,95.2%
Cc1ccc(NC(=O)c2ccc(CN3CCN(C)CC3)cc2)cc1Nc1nc(-c2cccnc2)cs1,103%
C#Cc1cccc(Nc2ncnc3cc(OCCOC)c(OCCOC)cc23)c1,96.8%
COc1ccc(OC)c2c(=S)c3ccccc3[nH]c12,86%
COc1cc2ncnc(Nc3ccc(Oc4ccccc4)cc3)c2cc1OC,106%
N#CC(C#N)=C(N)/C(C#N)=C/c1ccc(O)cc1,96.7%
CCOC(=O)c1c(C)[nH]c(/C=C2\C(=O)Nc3ccccc32)c1C,91.8%
COc1cc2nccc(Oc3ccc(NC(=S)NC(=O)c4ccccc4C)cc3)c2cc1OC,95.3%
O=S(=O)(c1cccc2cnccc12)N1CCCNCC1,62.1%
O=C(Nc1cccc(Nc2cc(Nc3cccc(C(F)(F)F)c3)ncn2)c1)C1CC1,103%

# Block 4
# Target: Prothrombin, mature alpha-thrombin (F2, Homo sapiens, UniProt P00734)
# Method: aptamer microarray, sandwich
# Molecule type: DNA with 2'F-ANA
# Sample: in vitro
# Concentration: 200 nM
# Notes: whole 15-mer aptamer, many near background
# Together with: Cy3 exosite-II aptamer, 400 nM
# Direction: higher = stronger binding
# Oligonucleotide: GGTTGGTGTGGTTGG
Modification,mean fluorescence intensity
2'F-ANA at 1 2 3 5 7 8 11,54.4 a.u.
2'F-ANA at 1 2 3 4 5 6 7 9 11 13 15,53.5 a.u.
2'F-ANA at 2 5 7 9 11 14 15,48.4 a.u.
2'F-ANA at 1 4 9 11 12 14 15,88.7 a.u.
2'F-ANA at 4 5 6 8 9 10 12 13 14 15,46 a.u.
2'F-ANA at 2 7 8 9 10 11 13 15,115 a.u.
2'F-ANA at 1 2 4 6 8 10 11 14 15,51.5 a.u.
2'F-ANA at 1 12 13 14 15,72.7 a.u.

# Other studies, line by line
Structure (SMILES),system,setting,scale,endpoint,value
COc1ccc(-c2c(Nc3ccccn3)[nH]c3c(C4=CCCCC4)c(-c4ccccc4)nn3c2=O)cc1,"human cancer patients, plasma","oral, 150 mg QD, median, cycle 1 day 15",reference: multiple over single dose,Cmax accumulation ratio,4.48

# Excerpt of the above (block 4):
Modification,mean fluorescence intensity
2'F-ANA at 1 2 3 5 7 8 11,54.4 a.u.
2'F-ANA at 1 2 3 4 5 6 7 9 11 13 15,53.5 a.u.
2'F-ANA at 2 5 7 9 11 14 15,48.4 a.u.
